Assay results gathered from unrelated publications.
Values joined by “and” are separate records of one study, mostly repeats; a detail may differ.
Sequence of UniProt O76090 (whole entry, unmodified, looked up): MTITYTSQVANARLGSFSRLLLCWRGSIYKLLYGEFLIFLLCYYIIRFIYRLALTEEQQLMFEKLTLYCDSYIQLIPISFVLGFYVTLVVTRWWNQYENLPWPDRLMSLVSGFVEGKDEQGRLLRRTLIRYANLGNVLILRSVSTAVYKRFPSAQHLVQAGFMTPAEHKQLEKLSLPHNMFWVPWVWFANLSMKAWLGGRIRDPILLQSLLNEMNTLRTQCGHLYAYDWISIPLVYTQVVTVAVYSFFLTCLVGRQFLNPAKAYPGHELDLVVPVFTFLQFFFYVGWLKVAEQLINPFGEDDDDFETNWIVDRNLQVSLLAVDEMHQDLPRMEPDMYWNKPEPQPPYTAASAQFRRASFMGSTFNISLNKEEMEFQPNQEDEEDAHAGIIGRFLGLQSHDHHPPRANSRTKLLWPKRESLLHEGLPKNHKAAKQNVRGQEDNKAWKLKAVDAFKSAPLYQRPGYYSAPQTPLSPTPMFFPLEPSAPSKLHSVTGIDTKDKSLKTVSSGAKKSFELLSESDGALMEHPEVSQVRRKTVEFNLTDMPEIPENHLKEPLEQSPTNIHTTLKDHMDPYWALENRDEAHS
Sequence of UniProt Q9Y3R4 (whole entry, looked up): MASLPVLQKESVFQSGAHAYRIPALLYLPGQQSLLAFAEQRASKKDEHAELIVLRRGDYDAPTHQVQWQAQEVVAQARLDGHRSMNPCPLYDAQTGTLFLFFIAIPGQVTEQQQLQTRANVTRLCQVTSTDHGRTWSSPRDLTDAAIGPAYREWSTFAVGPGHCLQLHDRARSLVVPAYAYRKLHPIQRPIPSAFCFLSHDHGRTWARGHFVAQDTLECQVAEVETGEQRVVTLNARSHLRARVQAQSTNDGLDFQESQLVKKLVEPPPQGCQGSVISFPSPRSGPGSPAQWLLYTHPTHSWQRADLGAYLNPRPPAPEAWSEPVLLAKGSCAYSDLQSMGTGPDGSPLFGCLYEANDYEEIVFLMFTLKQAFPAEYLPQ
Sequence of UniProt Q04609 (whole entry, looked up): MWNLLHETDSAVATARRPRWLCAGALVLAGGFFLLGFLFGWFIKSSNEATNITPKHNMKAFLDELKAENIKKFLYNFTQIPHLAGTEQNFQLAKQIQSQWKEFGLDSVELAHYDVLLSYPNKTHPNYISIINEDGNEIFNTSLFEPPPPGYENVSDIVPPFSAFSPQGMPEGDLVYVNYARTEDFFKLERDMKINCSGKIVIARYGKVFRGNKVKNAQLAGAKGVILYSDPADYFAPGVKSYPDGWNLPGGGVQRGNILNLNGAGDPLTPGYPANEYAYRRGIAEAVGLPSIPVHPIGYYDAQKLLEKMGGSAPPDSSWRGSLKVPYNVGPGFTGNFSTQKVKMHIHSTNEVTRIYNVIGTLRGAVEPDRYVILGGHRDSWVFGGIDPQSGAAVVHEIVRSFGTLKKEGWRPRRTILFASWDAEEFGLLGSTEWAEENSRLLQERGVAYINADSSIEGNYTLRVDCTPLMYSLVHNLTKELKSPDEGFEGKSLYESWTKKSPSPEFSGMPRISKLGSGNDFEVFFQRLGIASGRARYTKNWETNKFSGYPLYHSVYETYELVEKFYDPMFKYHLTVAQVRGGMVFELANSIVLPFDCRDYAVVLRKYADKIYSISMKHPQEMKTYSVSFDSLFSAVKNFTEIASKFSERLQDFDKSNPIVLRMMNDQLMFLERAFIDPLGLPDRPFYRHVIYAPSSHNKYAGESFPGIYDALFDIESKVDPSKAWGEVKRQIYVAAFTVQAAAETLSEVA
Sequence of UniProt O43704 (whole entry, looked up): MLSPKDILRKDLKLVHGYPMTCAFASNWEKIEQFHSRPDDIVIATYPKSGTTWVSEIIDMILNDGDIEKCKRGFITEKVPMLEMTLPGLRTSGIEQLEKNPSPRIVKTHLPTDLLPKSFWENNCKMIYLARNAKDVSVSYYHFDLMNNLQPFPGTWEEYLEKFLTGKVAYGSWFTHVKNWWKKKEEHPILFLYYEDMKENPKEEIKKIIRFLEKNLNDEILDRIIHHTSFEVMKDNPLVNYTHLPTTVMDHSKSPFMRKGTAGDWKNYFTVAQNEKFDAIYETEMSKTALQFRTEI
Sequence of UniProt O95551 (whole entry, looked up): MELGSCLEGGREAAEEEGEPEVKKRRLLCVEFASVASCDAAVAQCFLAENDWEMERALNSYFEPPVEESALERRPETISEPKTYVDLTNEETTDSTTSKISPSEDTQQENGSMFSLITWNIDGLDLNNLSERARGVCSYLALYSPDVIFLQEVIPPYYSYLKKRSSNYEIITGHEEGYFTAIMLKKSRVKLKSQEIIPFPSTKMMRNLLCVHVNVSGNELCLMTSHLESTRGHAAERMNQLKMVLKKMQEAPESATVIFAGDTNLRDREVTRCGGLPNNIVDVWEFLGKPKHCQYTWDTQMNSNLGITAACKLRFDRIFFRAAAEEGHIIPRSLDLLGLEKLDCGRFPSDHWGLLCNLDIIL
Sequence of UniProt Q86X55 (whole entry, looked up): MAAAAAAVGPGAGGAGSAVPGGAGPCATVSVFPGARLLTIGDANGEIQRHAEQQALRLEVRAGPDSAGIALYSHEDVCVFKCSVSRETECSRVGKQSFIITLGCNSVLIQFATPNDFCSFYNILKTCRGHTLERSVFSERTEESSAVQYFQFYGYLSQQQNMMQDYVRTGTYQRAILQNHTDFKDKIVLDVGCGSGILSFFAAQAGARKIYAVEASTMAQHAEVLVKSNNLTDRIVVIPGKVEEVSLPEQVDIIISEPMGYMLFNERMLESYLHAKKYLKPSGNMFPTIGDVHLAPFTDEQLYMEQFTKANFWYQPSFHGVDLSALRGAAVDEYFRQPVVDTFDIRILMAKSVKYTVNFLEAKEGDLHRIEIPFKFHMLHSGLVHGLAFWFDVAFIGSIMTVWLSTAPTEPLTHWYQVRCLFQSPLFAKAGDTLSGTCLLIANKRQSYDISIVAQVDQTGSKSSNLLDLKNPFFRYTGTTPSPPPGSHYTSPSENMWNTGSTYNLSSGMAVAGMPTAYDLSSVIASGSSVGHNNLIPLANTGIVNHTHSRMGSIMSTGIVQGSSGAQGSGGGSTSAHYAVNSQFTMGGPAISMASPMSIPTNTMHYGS
Sequence of UniProt P02769 (whole entry, looked up): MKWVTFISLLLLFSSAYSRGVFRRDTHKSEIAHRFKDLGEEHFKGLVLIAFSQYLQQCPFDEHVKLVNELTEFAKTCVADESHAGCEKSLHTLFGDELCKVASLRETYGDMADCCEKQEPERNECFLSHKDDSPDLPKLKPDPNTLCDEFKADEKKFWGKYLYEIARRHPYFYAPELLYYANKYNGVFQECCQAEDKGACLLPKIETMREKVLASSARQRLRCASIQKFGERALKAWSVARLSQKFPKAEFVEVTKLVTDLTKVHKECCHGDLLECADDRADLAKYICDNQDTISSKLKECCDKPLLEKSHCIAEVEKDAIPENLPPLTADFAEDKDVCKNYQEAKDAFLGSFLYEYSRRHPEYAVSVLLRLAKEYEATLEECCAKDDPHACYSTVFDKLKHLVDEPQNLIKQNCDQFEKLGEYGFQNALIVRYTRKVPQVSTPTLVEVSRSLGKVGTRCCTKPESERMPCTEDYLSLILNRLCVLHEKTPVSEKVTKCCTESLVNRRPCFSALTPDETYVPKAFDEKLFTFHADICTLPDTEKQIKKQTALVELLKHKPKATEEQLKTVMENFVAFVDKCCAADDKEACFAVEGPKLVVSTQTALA
Sequence of UniProt P31749 (whole entry, looked up): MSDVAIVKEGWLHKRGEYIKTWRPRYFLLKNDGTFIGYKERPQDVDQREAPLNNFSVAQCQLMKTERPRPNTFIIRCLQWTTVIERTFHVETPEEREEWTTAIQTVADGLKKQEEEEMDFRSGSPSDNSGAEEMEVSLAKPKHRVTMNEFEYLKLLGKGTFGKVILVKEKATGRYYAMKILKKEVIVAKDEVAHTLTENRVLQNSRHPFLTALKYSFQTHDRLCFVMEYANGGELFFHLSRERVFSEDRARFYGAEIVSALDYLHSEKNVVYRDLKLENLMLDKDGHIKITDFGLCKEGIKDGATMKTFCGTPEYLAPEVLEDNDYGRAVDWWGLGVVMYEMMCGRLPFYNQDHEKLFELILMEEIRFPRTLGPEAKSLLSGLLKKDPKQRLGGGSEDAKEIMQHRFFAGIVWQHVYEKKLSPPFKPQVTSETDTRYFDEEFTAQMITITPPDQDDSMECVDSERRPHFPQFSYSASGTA

CC1(C)CN(CCCCC(=O)N[C@@H](CCCCNC(=O)CCCCCCC(=O)NCCCC[C@H](NC(=O)N[C@@H](CCC(=O)O)C(=O)O)C(=O)O)C(=O)O)CC[N]2CC(C)(C)[S][Tc]2(=[O])[S]1 (stereo partly shown) [technetium-99m labelled] gave a Bmax of 9 µmol/mg (Glutamate carboxypeptidase 2 (FOLH1, Homo sapiens, UniProt Q04609); saturation binding; LNCaP).
Oc1c(Br)cc(Oc2ccc(Br)cc2Br)cc1Br gave an apparent Vmax of 24.1 nmol/min/mg protein (Sulfotransferase 1B1 (SULT1B1, Homo sapiens, UniProt O43704); sulfonation, substrate).
CC[C@H](C)[C@H](NC(=O)[C@H](Cc1ccccc1)NC(=O)[C@H](CCC(=O)O)NC(=O)[C@H](CCCNC(=N)N)NC(=O)[C@H](C)NC(=O)[C@H](C)NC(=O)[C@H](CCC(N)=O)NC(=O)[C@H](CCC(=O)O)NC(=O)[C@H](CCC(=O)O)NC(=O)[C@H](CC(C)C)NC(=O)[C@H](Cc1ccc(O)cc1)NC(=O)[C@H](CO)NC(=O)[C@H](CO)NC(=O)[C@@H](NC(=O)[C@H](CC(=O)O)NC(=O)[C@H](CO)NC(=O)[C@@H](NC(=O)[C@H](Cc1ccccc1)NC(=O)[C@@H](NC(=O)CNC(=O)[C@H](CCC(=O)O)NC(=O)[C@H](C)NC(=O)CCc1cnc[nH]1)[C@@H](C)O)[C@@H](C)O)C(C)C)C(=O)N[C@@H](C)C(=O)N[C@@H](Cc1c[nH]c2ccccc12)C(=O)N[C@@H](CC(C)C)C(=O)N[C@H](C(=O)N[C@@H](CCCNC(=N)N)C(=O)NCC(=O)N[C@@H](CCCNC(=N)N)C(=O)N[C@@H](CCCCNC(=O)COCCOCCNC(=O)COCCOCCNC(=O)CC[C@H](NC(=O)CCCCCCCCCCCCCCCCC(=O)O)C(=O)O)C(=O)NCC(=O)NCC(=O)N[C@@H](CO)C(=O)N[C@@H](CCCCNc1c(NCCCCCN(O)C(=O)CCC(=O)NCCCCCN(O)C(=O)CCC(=O)NCCCCCN(O)C(C)=O)c(=O)c1=O)C(=O)NCC(=O)NCC(=O)N[C@@H](CO)C(=O)N[C@@H](CCCCNc1c(NCCCCCN(O)C(=O)CCC(=O)NCCCCCN(O)C(=O)CCC(=O)NCCCCCN(O)C(C)=O)c(=O)c1=O)C(=O)NCC(=O)NCC(=O)N[C@@H](CO)C(=O)N[C@@H](CCCCNc1c(NCCCCCN(O)C(=O)CCC(=O)NCCCCCN(O)C(=O)CCC(=O)NCCCCCN(O)C(C)=O)c(=O)c1=O)C(=O)NCC(=O)NCC(=O)N[C@@H](CO)C(=O)N[C@@H](CCCCNc1c(NCCCCCN(O)C(=O)CCC(=O)NCCCCCN(O)C(=O)CCC(=O)NCCCCCN(O)C(C)=O)c(=O)c1=O)C(=O)O)C(C)C: “fold potency loss” 10.5 (Glucagon-like peptide 1 receptor (GLP1R, Homo sapiens, UniProt P43220); agonist, CRE luciferase reporter; BHK cells; Zr-loaded DFO conjugate, with: 0% HSA; reference: parent peptide).
CCCCCCCCCCCCCCCCCCc1ccc(O)cc1 — result for “binding entropy change”: 62.4 J/mol/K (Albumin (ALB, Bos taurus, UniProt P02769); van't Hoff analysis; concentration not given, 310.15 K).
Cc1cc(-c2ccnc3[nH]cc(F)c23)cc(F)c1[C@@]1(O)[C@H](C)CN(C(=O)CN)C[C@@H]1C: “probe labelling inhibition” -3.9% (RAC-alpha serine/threonine-protein kinase (AKT1, Homo sapiens, UniProt P31749); ATP/ADP probe binding, KiNativ; HEK293T lysate; 1 µM, ATP loop peptide).
Nc1ccc(C(=O)O)cc1 gave a current density of 16.5 pA/pF and 25.4 pA/pF and 15.8 pA/pF and 27.6 pA/pF and 42.5 pA/pF and 9.63 pA/pF (BEST1, with wild-type BEST1 (Homo sapiens, UniProt O76090, Q293K); ion current, whole-cell patch clamp; HEK293 co-expressing mutant and wild-type; concentration not given, voltage 100 mV).
CC1(C)C(/C=C/C=C2/N(CCCc3ccccc3)c3ccc(Cl)cc3C2(C)C)=[N+](CCCc2ccccc2)c2ccc(Cl)cc21.[Br-] has a Hill coefficient of 8.59 (Histone-arginine methyltransferase CARM1 (CARM1, Homo sapiens, UniProt Q86X55); inhibitor, filter binding; with: histone H3.3 substrate).
With CSc1ccc(C(=O)/C=C/c2cc(C)c(OC(C)(C)C(=O)O)c(C)c2)cc1 the Emax was 46% (Peroxisome proliferator-activated receptor delta (Rattus norvegicus, UniProt Q62879); reporter gene, agonist, luciferase reporter; rat; reference: maximal control activation).
Under “sialic acid release”, O=C(CO)NC1C(O)CC(OCC2OC(Oc3ccc([N+](=O)[O-])cc3)C(O)C(O)C2O)(C(=O)O)OC1C(O)C(O)CO (stereo not shown) is recorded as 41% (Sialidase-2 (Homo sapiens, UniProt Q9Y3R4); substrate; 0.3 mM, 30 min, pH 5.0, 37 °C).
The selectivity ratio of CS(=O)(=O)c1ccc2nc(-c3ccccc3)c(Nc3ccc(C(=O)O)cc3)n2c1 is reported as 26 (Tyrosyl-DNA phosphodiesterase 2 (TDP2, Homo sapiens, UniProt O95551); gel-based fluorescence; reference: TDP1 IC50 over TDP2 IC50).

Some of these lines once more:
Cc1cc(-c2ccnc3[nH]cc(F)c23)cc(F)c1[C@@]1(O)[C@H](C)CN(C(=O)CN)C[C@@H]1C: “probe labelling inhibition” -3.9% (RAC-alpha serine/threonine-protein kinase (AKT1, Homo sapiens, UniProt P31749); ATP/ADP probe binding, KiNativ; HEK293T lysate; 1 µM, ATP loop peptide).
